Results gathered from unrelated publications.
Numbered parts are unrelated; each lists some results of a single study.
Sequence of UniProt Q9UQM7 (whole entry, looked up): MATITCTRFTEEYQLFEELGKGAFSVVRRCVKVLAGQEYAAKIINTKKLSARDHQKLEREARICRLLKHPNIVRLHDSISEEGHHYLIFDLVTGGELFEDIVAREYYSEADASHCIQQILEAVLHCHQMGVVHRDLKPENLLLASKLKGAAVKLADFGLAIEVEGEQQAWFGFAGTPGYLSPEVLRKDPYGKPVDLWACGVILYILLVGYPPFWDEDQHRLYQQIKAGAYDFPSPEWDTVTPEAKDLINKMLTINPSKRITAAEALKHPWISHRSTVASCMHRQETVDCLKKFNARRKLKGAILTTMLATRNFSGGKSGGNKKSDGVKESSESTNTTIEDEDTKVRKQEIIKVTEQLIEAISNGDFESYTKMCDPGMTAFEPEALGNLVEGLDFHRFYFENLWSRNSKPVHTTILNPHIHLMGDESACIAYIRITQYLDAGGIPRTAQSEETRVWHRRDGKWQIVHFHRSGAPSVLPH

Study 1
Host: human
Matrix: microsomes or S9
Concentration: 2 µM
Time: 0.5 h
Structure (SMILES) | remaining compound
CC(C)NC(=O)Cn1cnc2c(sc3cccc(Cl)c32)c1=O | 87.8%
c1cc2c(cc1C1CCCCC1)c1c3n2CCN=C3NCC1 | 99.5%
CC(Sc1nnnn1C(C)C)C(=O)C12CC3CC(CC(C3)C1)C2 (stereo not drawn) | > 99%
CCC(=O)N(CCC1(c2ccc(C)cc2)CCOC(C)(C)C1)Cc1ccccc1 (stereo not drawn) | 55.4%
C=CCn1c(N)nnc1SC(C)C(=O)NC(N)=O (stereo not drawn) | 90.8%
C1CN(c2nc(N3CCOCC3)c3nn[nH]c3n2)CCO1 | 73.4%
COC(=O)C1(CCCN(C)CCc2ccc(OC)c(OC)c2)CCCc2c1ccc(OC)c2OC (stereo not drawn) | 12.2%

Study 2
Target: Fibroblast growth factor receptor 2 (FGFR2, Homo sapiens, UniProt P21802)
Sequence of UniProt P21802 (whole entry, looked up): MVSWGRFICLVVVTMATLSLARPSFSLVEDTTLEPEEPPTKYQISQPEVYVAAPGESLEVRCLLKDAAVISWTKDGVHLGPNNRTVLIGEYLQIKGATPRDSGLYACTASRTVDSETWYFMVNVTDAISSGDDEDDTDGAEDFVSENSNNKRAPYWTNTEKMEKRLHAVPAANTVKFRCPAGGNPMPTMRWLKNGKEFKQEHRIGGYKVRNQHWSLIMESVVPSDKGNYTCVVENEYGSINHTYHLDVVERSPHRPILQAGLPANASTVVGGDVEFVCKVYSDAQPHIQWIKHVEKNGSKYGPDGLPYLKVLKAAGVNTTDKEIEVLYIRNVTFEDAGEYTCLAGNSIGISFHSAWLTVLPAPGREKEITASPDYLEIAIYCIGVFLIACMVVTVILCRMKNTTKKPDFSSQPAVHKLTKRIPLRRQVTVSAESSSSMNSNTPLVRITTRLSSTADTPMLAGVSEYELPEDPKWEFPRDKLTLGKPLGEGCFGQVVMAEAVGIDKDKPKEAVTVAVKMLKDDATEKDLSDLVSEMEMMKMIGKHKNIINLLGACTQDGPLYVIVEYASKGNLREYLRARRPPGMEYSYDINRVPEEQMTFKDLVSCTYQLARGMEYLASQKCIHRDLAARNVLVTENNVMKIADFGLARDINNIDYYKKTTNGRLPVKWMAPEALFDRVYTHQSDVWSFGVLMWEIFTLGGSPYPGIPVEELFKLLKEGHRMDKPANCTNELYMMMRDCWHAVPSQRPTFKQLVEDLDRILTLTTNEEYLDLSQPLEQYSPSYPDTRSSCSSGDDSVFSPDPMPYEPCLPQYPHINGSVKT
Observed: enzyme activity
Mode: inhibitor
Concentration: 0.5 µM
Baseline: control
Structure (SMILES) | remaining activity [%]
O=c1cc(N2CCOCC2)oc2c1ccc1ccccc12 | 107
O=C1NC(=O)/C(=C/c2ccc3nccnc3c2)S1 | 95
CN(C)CCCn1cc(C2=C(c3c[nH]c4ccccc34)C(=O)NC2=O)c2ccccc21 | 95.4
Cc1ccc(NC(=O)c2ccc(CN3CCN(C)CC3)cc2)cc1Nc1nccc(-c2cccnc2)n1 | 100
CC(C)c1nn(-c2c(Cl)cccc2Cl)c2nc(Cc3ccc(OCCO)cc3)[nH]c(=O)c12 | 97.5
CCN1/C(=C/C(C)=O)Sc2ccc(OC)cc21 | 97.1
O=C(Nc1ccc(Cl)cc1)c1ccccc1NCc1ccncc1 | 95.7
COc1cc2ncnc(N3CCN(C(=O)Nc4ccc(Oc5ccccc5)cc4)CC3)c2cc1OC | 92.4
CCOc1cc2ncnc(Nc3cccc(Br)c3)c2cc1OCC | 96.3
Cc1nc(Nc2ncc(C(=O)Nc3c(C)cccc3Cl)s2)cc(N2CCN(CCO)CC2)n1 | 73.7
CC(=O)O/N=C1/C(c2c(O)[nH]c3cc(Br)ccc23)=Nc2ccccc21 | 85.8
CCC(=O)Nc1ccc2ncnc(Nc3cccc(Br)c3)c2c1 | 99.8
CC(C)[C@H](CO)Nc1nc(Nc2cccc(Cl)c2)c2ncn(C(C)C)c2n1 | 105
Cn1cnc2cc3c(Nc4cccc(Br)c4)ncnc3cc21 | 98
COc1ccc(-c2cnc3c(-c4ccsc4)cnn3c2)cc1 | 92.4
Cn1cc(/C=C2\C(=O)Nc3ccc(S(N)(=O)=O)cc32)c2ccccc21 | 50.5
Nc1[nH]nc2nnc(-c3c(-c4ccccc4)nn4ccccc34)cc12 | 102
C[S+]([O-])c1ccc(-c2nc(-c3ccncc3)c(-c3ccc(F)cc3)[nH]2)cc1 (stereo not drawn) | 103
COc1ccc(Cl)cc1NC(=O)Nc1cc(C)nc2ccccc12 | 96.9
COc1cc2ncc(-c3ccccc3)nc2cc1OC | 103
COc1cc2ncnc(Nc3ccc(OCc4ccccc4)cc3)c2cc1OC | 103

Study 3
Target: Alpha-1D adrenergic receptor (ADRA1D, Homo sapiens, UniProt P25100)
Sequence of UniProt P25100 (whole entry, looked up): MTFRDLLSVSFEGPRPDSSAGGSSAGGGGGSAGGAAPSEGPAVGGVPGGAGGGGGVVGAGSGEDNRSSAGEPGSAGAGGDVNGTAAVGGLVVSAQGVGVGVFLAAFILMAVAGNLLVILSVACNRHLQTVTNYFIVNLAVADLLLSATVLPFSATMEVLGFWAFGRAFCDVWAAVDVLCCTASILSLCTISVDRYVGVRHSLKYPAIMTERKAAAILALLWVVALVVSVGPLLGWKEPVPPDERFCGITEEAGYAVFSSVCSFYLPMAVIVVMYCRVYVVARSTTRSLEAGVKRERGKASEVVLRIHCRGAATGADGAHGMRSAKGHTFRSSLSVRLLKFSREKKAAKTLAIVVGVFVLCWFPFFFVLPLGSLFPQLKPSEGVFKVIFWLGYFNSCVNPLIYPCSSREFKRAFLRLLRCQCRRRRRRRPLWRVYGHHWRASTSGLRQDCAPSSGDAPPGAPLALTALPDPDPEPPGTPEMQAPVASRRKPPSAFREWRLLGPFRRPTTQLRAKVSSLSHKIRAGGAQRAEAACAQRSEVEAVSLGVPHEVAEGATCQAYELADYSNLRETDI
Observed: binding
Method: radioligand binding
Concentration: 10 µM
SMILES | inhibition [%]
CN([C@@H]1CCc2c(CC(=O)O)c3cc(S(C)(=O)=O)ccc3n2C1)S(=O)(=O)c1ccc(F)cc1 | -11.6
O=C(Nc1cccnn1)N1CC(CC=Cc2cncc(Oc3ccc(C(F)(F)F)cn3)n2)C1 | -10.6
C[C@@]1(Cc2ccc(C#N)cc2)C(=O)N(c2cc(Cl)cc(Cl)c2)c2ncc(C(=O)NC3(c4nc(C5CCC5)no4)CC3)n21 | 8.28
CS(=O)(=O)NCC[C@H](NC(=O)c1cncc2c1cnn2-c1ccc(F)cc1)c1ccnc(S(C)(=O)=O)c1 | -9.49
CC(C)(O)c1cncc(-c2nc3ccc(F)cc3n2C2CC2)c1 | 2.58
CCCOc1ccc([C@H]2[C@H](C(=O)O)[C@@H](c3ccc4c(c3)OCO4)CN2CC(=O)Nc2c(CC)cccc2CC)cc1 | -1.79
CNC(=O)Nc1ccc2c(c1)[C@]1(CC2)OC(=O)N(CC(=O)N(Cc2ccc(F)cc2)[C@@H](C)C(F)(F)F)C1=O | 9.73
CN(C)C(=O)Cn1cc(-c2nc([C@@](C)(c3ccc(-c4cnc(N)nc4)cc3)C3CC3)no2)cn1 | -3.06
O=C([C@H]1C[C@H](O)CN1c1ccc(Cl)cc1)N1CC2COCC(C1)N2Cc1ccc(Cl)cc1 | -7.34
Cc1cc(C)c(-n2ccn3nc(-c4cccnc4)cc23)cc1NC(=O)c1cc(C#N)cc(S(F)(F)(F)(F)F)c1 | -2.46
O=C(NC[C@@H]1[C@H]2CN(C(=O)OCc3cc(C(F)(F)F)cc(C(F)(F)F)c3)C[C@@H]12)c1ccc2[nH]nnc2c1 | -1.41
COCc1nc2cnc3cc(-c4c(C)noc4C)c(OC[C@H]4CCNC4)cc3c2n1[C@H](C)c1ccccc1 | 17

Study 4
Cell line: A-375
Concentration: 100 µM
Time: 18 h
Compound | viability
CC(N)[C@]12C[C@H]3C[C@H](C[C@H](C3)C1)C2 (stereo partly drawn) | 73.7%
CCC(C)n1ncn(-c2ccc(N3CCN(c4ccc(OC[C@H]5CO[C@](Cn6cncn6)(c6ccc(Cl)cc6Cl)O5)cc4)CC3)cc2)c1=O (mixture of isomers) | 87.8%
COc1cc(C(=O)NC2CCCNC2)cc(OC)c1OC (stereo not drawn) | 111%
O=C(O)CSCC(=O)NC1CCSC1=O (stereo not drawn) | 61.5%
CO/N=C(\C(=O)N[C@@H]1C(=O)N2C(C(=O)OC(C)OC(C)=O)=C(COC(N)=O)CS[C@H]12)c1ccco1 (stereo partly drawn) | 106%
Cc1onc(-c2ccccc2)c1-c1ccc(S(N)(=O)=O)cc1 | 73.5%
CC(S)C(=O)NCC(=O)O (stereo not drawn) | 108%

Further values, each from its own experiment
Structure (SMILES) | target | observed | mode | concentration | quantity | result
C[C@@H](O)[C@@H](N)C(=O)O | Calcium/calmodulin-dependent protein kinase type II subunit alpha (CAMK2A, Homo sapiens, UniProt Q9UQM7) | enzyme activity | inhibitor | 10 µM | inhibition | 9%

Repeated from above (study 4):
Compound | viability
CO/N=C(\C(=O)N[C@@H]1C(=O)N2C(C(=O)OC(C)OC(C)=O)=C(COC(N)=O)CS[C@H]12)c1ccco1 (stereo partly drawn) | 106%
Cc1onc(-c2ccccc2)c1-c1ccc(S(N)(=O)=O)cc1 | 73.5%
O=C(O)CSCC(=O)NC1CCSC1=O (stereo not drawn) | 61.5%
CC(S)C(=O)NCC(=O)O (stereo not drawn) | 108%
CCC(C)n1ncn(-c2ccc(N3CCN(c4ccc(OC[C@H]5CO[C@](Cn6cncn6)(c6ccc(Cl)cc6Cl)O5)cc4)CC3)cc2)c1=O (mixture of isomers) | 87.8%
COc1cc(C(=O)NC2CCCNC2)cc(OC)c1OC (stereo not drawn) | 111%
CC(N)[C@]12C[C@H]3C[C@H](C[C@H](C3)C1)C2 (stereo partly drawn) | 73.7%
